{"data": "Results of several laboratories", "note": "A part holds a random share of what one study measured."}
{"data": "Series 1", "target": "RING finger protein unkempt homolog, zinc fingers 1-6, GST-SBP tag (UNK, Homo sapiens, UniProt Q9C0B0, residues 30-357)", "technique": "RNA Bind-n-Seq", "molecule type": "RNA", "medium": "in vitro", "tested at": "not given", "setting": "RNA with constant flanks, ends assumed", "baseline": "input RNA pool", "direction": "higher = stronger binding", "UniProt Q9C0B0, sequence (30-357, looked up)": "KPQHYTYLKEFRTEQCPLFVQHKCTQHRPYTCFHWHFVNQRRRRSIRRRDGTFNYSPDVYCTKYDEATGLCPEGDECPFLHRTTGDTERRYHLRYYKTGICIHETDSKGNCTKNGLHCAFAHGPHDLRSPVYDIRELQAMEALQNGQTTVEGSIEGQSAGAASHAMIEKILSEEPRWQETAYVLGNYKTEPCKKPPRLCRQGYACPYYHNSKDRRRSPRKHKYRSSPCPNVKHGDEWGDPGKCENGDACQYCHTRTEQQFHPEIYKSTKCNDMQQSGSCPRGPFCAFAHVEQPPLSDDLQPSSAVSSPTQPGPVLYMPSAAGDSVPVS"}
{"Oligonucleotide": "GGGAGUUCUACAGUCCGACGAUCGCAGAUUAUAAUGGCAGACUGGCGGCAGAAAUAGAUGAUAGAAAGCAACUCACCCGAAUGUCCGCAGAUUUUCUUCGUUGUCAAAAGGAAGCCCUUGCAGAGAAAGAACAUAAAUUGGAACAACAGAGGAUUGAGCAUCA", "bound/input enrichment": "0.788 ratio"}
{"Oligonucleotide": "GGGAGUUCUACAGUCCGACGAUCUCAUUGUAAAUUACCUUUGUGUGUACAUUUUUACUGUAUUUGAGACAUUUUUUGUGUGUGACCCGUUAAUUUUGCAGGAUGUGCCAUAUCAUUGAACGGAACUAAAGUCUGUGACAGUGGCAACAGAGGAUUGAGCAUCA", "bound/input enrichment": "0.303 ratio"}
{"Oligonucleotide": "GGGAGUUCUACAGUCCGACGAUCCUUUUGCAGUUUGACACUAAGAUAACUUCUGUGUGCAUUUUUCUAUGCUUUUUUAAAAACCCGUUUCAUUUCAUUUUCAUGAGAUGUUUGGUUUAUAAGAUCUGAGGAUGGUUAUAAAUACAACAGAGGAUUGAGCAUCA", "bound/input enrichment": "0.167 ratio"}
{"Oligonucleotide": "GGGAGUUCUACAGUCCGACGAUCGCCAUCUGGGGUGUGGUGUGGUAUGUGGGAAGAAGUUCAGAGGAACCGUUGGAAACGACGUCCGGCAUUUUACCUUUUCAGUAACAUUUUAUACAUCUACUUGUCAAUGUAUUUGAGACACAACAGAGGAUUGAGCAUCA", "bound/input enrichment": "0.284 ratio"}
{"Oligonucleotide": "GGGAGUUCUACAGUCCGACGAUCCCAGAUGGGACUAGCAGAUUUACCUGCAAAGGAAAGUCUGUUUUUCACUUCAUGGGGACCCGCACAUUUUCCGAGUACACAGUUGUGGCUGACAUCUCUGUUGCUAAAAUCGAUCCUUCGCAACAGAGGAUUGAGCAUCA", "bound/input enrichment": "0.12 ratio"}
{"Oligonucleotide": "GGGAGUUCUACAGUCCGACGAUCCCUGAACUUUUAGCUUUCAAGUUGUGGCUGUUUUUUGUUUUUGUUUUUGUUUUUGUUUUCUUCCGAAUUUUUCCCUGUUUCCCACCUUCUCUUCCCCUGUUGCCAAGGUCUAACUCAUGGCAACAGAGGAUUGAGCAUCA", "bound/input enrichment": "1.08 ratio"}
{"Oligonucleotide": "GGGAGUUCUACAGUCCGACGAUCCAUACCAGCUGAAGAGCGACAAGCCGCUGGCAGCCGCGGAUCUCACCGCCGCUCAGGGUUUUCCGAACUUCAGCCAUAAAAAUGGGCAGAAUUUUCCUUGAUCAUAUCGGUGGUACCCGUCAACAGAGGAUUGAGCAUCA", "bound/input enrichment": "0.113 ratio"}
{"Oligonucleotide": "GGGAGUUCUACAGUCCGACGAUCAGAAGCUUCCUAAGGAACAAGCAAGUUGAAUAGAGAAAAUAGUGAUCAAUAAUAGGCAUUUCCGUGGUCUUUUUAAUGUUUUCUGCUGCGGAACAUUUCAAGAUUUAUUGAUUUCCUCCUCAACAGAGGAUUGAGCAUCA", "bound/input enrichment": "2.47 ratio"}
{"data": "Series 2", "target": "Prothrombin, mature alpha-thrombin (F2, Homo sapiens, UniProt P00734)", "technique": "aptamer microarray, sandwich", "molecule type": "DNA with 2'F-ANA", "medium": "in vitro", "tested at": "200 nM", "setting": "whole 15-mer aptamer, many near background", "added": "Cy3 exosite-II aptamer, 400 nM", "direction": "higher = stronger binding", "oligonucleotide": "GGTTGGTGTGGTTGG"}
{"Modification": "2'F-ANA at 2 3 4 8 10 14", "mean fluorescence intensity": "182 a.u."}
{"Modification": "2'F-ANA at 1 4 5 6 7 8 9 10 11 12 15", "mean fluorescence intensity": "57 a.u."}
{"Modification": "2'F-ANA at 1 3 4 5 6 7 8 10 11 14", "mean fluorescence intensity": "85.2 a.u."}
{"Modification": "2'F-ANA at 2 3 4 5 6 10 11 13 14", "mean fluorescence intensity": "59.7 a.u."}
{"Modification": "2'F-ANA at 4 5 7 8 9 10 12 13 15", "mean fluorescence intensity": "65.3 a.u."}
{"Modification": "2'F-ANA at 2 4 6 9 11 12 13 14", "mean fluorescence intensity": "79.7 a.u."}
{"Modification": "2'F-ANA at 2 3 4 5 6 9 10 11 14 15", "mean fluorescence intensity": "52.8 a.u."}
{"Modification": "2'F-ANA at 2 4 5 7 8 13 14", "mean fluorescence intensity": "55.2 a.u."}
{"Modification": "2'F-ANA at 4 6 9 10 12 14 15", "mean fluorescence intensity": "69.7 a.u."}
{"Modification": "2'F-ANA at 1 2 3 5 6 8 9 11 12 13 15", "mean fluorescence intensity": "74.9 a.u."}
{"Modification": "2'F-ANA at 7 8 9 13 14 15", "mean fluorescence intensity": "197 a.u."}
{"Modification": "2'F-ANA at 1 3 5 6 8 9 10 11 13 15", "mean fluorescence intensity": "48.6 a.u."}
{"Modification": "2'F-ANA at 1 2 3 4 8 9 10 12", "mean fluorescence intensity": "76.3 a.u."}
{"Modification": "2'F-ANA at 1 3 4 5 6 7 8 10 12 14", "mean fluorescence intensity": "81.9 a.u."}
{"Modification": "2'F-ANA at 2 5 7 8 9 10 15", "mean fluorescence intensity": "63.5 a.u."}
{"Modification": "2'F-ANA at 5 6 7 8 9 10 11 12 13 14", "mean fluorescence intensity": "55.9 a.u."}
{"Modification": "2'F-ANA at 2 3 6 7 11 12 13", "mean fluorescence intensity": "827 a.u."}
{"Modification": "2'F-ANA at 1 3 4 5 6 8 9 10 11 14 15", "mean fluorescence intensity": "71.1 a.u."}
{"Modification": "2'F-ANA at 3 4 7 12 14 15", "mean fluorescence intensity": "472 a.u."}
{"Modification": "2'F-ANA at 1 4 5 6 8 9 11 12", "mean fluorescence intensity": "97.5 a.u."}
{"Modification": "2'F-ANA at 2 3 4 5 6 7 9 10 11 13", "mean fluorescence intensity": "75 a.u."}
{"Modification": "2'F-ANA at 2 5 6 7 10 12 13 14", "mean fluorescence intensity": "47.2 a.u."}
{"data": "Series 3", "target": "Ras GTPase-activating protein-binding protein 1, full length (G3BP1, Homo sapiens, UniProt Q13283)", "technique": "RNA Bind-n-Seq", "molecule type": "RNA", "medium": "in vitro", "tested at": "200 nM", "setting": "whole 134-nt RNA, ends assumed", "added": "150 mM KCl", "baseline": "input library", "direction": "higher = stronger binding", "UniProt Q13283, sequence (whole entry, looked up)": "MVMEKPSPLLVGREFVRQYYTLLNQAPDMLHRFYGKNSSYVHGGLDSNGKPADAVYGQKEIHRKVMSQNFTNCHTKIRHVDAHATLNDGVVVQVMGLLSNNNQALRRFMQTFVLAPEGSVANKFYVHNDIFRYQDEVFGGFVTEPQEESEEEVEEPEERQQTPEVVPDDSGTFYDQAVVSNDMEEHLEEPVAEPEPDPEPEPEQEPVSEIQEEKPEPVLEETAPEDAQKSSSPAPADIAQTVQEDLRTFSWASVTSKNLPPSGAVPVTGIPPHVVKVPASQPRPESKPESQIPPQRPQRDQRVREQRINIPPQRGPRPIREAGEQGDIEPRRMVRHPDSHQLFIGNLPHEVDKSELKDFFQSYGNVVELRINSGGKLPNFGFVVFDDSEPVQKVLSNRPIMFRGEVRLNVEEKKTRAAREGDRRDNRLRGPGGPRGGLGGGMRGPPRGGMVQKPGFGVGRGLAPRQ"}
{"Oligonucleotide": "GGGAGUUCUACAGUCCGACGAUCUUUAGACAGAAACAAGAAGCAACAGAGUCCCUUAAGUGCCAAGAGGAACUUCGAGAGCGCCUUCAUGAGGAGUCCAGGGCCAGAGAACAGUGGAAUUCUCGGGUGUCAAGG", "log2 enrichment": -0.493}
{"Oligonucleotide": "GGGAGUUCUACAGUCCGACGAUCUGGCCCUGGUGGCAUGCGGGAAGGAAGAGGUGGCCUCAUGGAUCGUGGUGGUCCCGGUGGAAUGUUCAGAGGUGGCCGUGGUGGAGACAGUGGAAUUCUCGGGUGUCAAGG", "log2 enrichment": 0.7}
{"Oligonucleotide": "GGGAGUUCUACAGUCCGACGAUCUCAAGUCCUGUGCUACACAUCGUAUGUACCGAAUCGGGGUUUGGGUUUGGUUUGGAAAGUAUUAUGUUACGCCGUUCGGAUCUGCACUUCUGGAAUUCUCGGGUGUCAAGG", "log2 enrichment": -0.284}
{"Oligonucleotide": "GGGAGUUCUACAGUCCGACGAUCUAACUUUAGAGGAGGAUCUGAUGGAUAUGGCAGUGGACGUGGAUUUGGGGAUGGCUAUAAUGGGUAUGGAGGAGGACCUGGAGGUGGGAAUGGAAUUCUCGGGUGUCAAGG", "log2 enrichment": 0.381}
{"Oligonucleotide": "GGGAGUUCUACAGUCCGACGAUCUCCUGUGCUACACAUCGUAUGUACCGAAUCGGGGAAAAAGGGGAAAAAGGGGUUUGGGGAAAGUAUUAUGUUACGCCGUUCGGAUCUGCAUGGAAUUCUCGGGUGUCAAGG", "log2 enrichment": 0.773}
{"Oligonucleotide": "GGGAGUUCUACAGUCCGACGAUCUGGCCCUGGUGGCAUGCGGGGAGGAAGAGGUGGCCUCAUGGAUCGUGGUGGUCCCGGUGGAAUGUUCAGAGGGGGCCGUGGUGGAGACAGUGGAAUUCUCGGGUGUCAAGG", "log2 enrichment": -0.0794}
{"Oligonucleotide": "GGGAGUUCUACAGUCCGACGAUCACCAUGCAGGUGGGCAAAAUUGGGAAGUGGGGCAAGGGGGGGAUAGGGAGGGGGGUAACACUUUGGGAACAGGUGGUCCCAGGUCGUUUCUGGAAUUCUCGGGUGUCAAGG", "log2 enrichment": 1.08}
{"Oligonucleotide": "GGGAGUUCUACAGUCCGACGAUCAAGUCCUGUGCUACACAUCGUAUGUACCGAAUCGGGAAAGGGUGGGAAAAAAAGGGAAAGUAUUAUGUUACGCCGUUCGGAUCUGCACUUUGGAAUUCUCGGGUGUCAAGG", "log2 enrichment": -0.0293}
{"Oligonucleotide": "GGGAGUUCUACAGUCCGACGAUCUGGUGGACAGAAGGCACUGCAGCCUGAAAUGGCAGAGUCUGGUGCUGACGAUCCGCGAGAAGAUCAAUGCUGCCAUCCAGGACAUGCCAGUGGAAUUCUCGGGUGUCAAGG", "log2 enrichment": -1.64}
{"Oligonucleotide": "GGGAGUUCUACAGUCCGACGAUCCCUGUGCUACACAUCGUAUGUACCGAAUCGGGGAAAAAAGGGGAAAAAAGGGAAAAAAGGAAAGUAUUAUGUUACGCCGUUCGGAUCUGCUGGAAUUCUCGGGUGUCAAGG", "log2 enrichment": -0.477}
{"data": "Series 4", "target": "RNA binding protein fox-1 homolog 2, RRM domain, GST-SBP tag (RBFOX2, Homo sapiens, UniProt O43251-10, residues 100-194)", "technique": "RNA Bind-n-Seq", "molecule type": "RNA", "medium": "in vitro", "tested at": "365 nM", "setting": "natural RNA segment, single round, ends assumed", "baseline": "no-protein control", "direction": "higher = stronger binding", "Residues (chain)": "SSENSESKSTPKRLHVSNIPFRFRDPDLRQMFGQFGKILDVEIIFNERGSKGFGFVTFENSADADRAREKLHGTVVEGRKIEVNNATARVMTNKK"}
{"Oligonucleotide": "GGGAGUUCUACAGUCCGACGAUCUGUACAGCGGCUUGGCCUCUCACGAUCCAUUGUAUGGCUUUAUAAAUGAUAAAGUUACACAAACCCACCUGUGGCCUGGCUUCGUUUGGGCUCUGCUGGGGGUCUUCAAGUGGAAUUCUCGGGUGCCAA", "RBNS enrichment (R)": 0.177}
{"Oligonucleotide": "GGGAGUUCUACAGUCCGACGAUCUCUGUGUGUGAAAUUUGGGCAUUCUGCUUUUCUCUACUAAUCUUGAAGUGCUCAGUGAUUUGUGUAUUUGUGUCUUUCUAACUUCUAAUAAACUCACUCCGACUGACCUGUGGAAUUCUCGGGUGCCAA", "RBNS enrichment (R)": 0.476}
{"Oligonucleotide": "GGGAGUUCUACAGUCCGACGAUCAUAUUGCCCUGUGACUCCAGUAUAUCUCACCUGUACUGACCAAACCUAAAUAAACAUUUUUAUUACGCUCUUGUUUGUUUUUUCCUUUUGUCUUGGGUGUGUUUAGCAAUUGGAAUUCUCGGGUGCCAA", "RBNS enrichment (R)": 0.422}
{"Oligonucleotide": "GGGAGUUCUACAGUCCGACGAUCAAAUAUGAUGCUGGCAUGGCAAUCAGACCAAAGCACUGUCCCCAAUUGUUGUCUUAACUAUGACUAGACAUGUUAUACAGCCAUUUAUCUUGUACAACUGAGAAGAAUCAUGGAAUUCUCGGGUGCCAA", "RBNS enrichment (R)": 1.28}
{"Oligonucleotide": "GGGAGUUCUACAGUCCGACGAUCCUUGGCUGGUGGGCAGAUGCAAAUAGCUUUUGCUGUUAUUAAUGAAGUAAUUACUAAAUGCACUUAAACCAGGGCAGGAAGGAAUGGAAGGAUGGAGCUAGAAAGCUCAGUGGAAUUCUCGGGUGCCAA", "RBNS enrichment (R)": 0.362}
{"Oligonucleotide": "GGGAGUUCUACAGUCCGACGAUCCUGCUGUCAGAACAGAAGACCUCGCUGCCCUGAGGACAAGCACUUGCCACCACCGUCACUCAGCCCUGGGCGUAGCCGGACAGGAGGAGAGCAGUGAUGCGGAUGGGUACUGGAAUUCUCGGGUGCCAA", "RBNS enrichment (R)": 0.228}
{"Oligonucleotide": "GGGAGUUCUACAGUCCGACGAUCGCUUUCCCAAGCUCACCCCACCUCCAUGACUAGAAGCUUCUGCAAAUCUGCUUGGUAAAUGUCUCCUGGGAAAGGCAGAACCCAUAACUUAAAGACACGCACAGUCCCUUUGGAAUUCUCGGGUGCCAA", "RBNS enrichment (R)": 0.365}
{"Oligonucleotide": "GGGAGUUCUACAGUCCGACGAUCGGGGGCGCCCUGUAUUUUGGGGGCCUCUUCCAGGCACCCACAGCCCUGACGGAGCCCCUGGAGGUGGAGCACGUGGUGGGCCAGGGUGUCCUCCACCGUGGCGGCCAGCUUGGAAUUCUCGGGUGCCAA", "RBNS enrichment (R)": 0.495}
{"Oligonucleotide": "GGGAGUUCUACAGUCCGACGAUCAGGAAACGUUUACUACUAAGGUUAGGCCUGCAGUUGCUCUGGAACAUUCCAUGGAGAAUGCAUUCAUCAAACGGCCCGAAAGAAGCUACAUUUUGUUGGGAAGCUGGAUAUGGAAUUCUCGGGUGCCAA", "RBNS enrichment (R)": 0.517}
